Measured values gathered from unrelated publications.
Each line is one published result; not all experiments were run side by side. Several values in a cell are separate wells, animals, samples, runs or records. Numbers after ± are the reported error.
APP: Amyloid-beta precursor protein (APP, Homo sapiens, UniProt P05067)
APP amyloid-beta fibrils: Amyloid-beta precursor protein, amyloid-beta fibrils (APP, Homo sapiens, UniProt P05067)
APP amyloid-beta insoluble aggregates: Amyloid-beta precursor protein, amyloid-beta insoluble aggregates (APP, Homo sapiens, UniProt P05067)

Clc1ccc2c(c1)N(CCCN1CCN(CCn3cc(CN4CCCNCCN(Cc5cn(CCN6CCN(CCCN7c8ccccc8Sc8ccc(Cl)cc87)CC6)nn5)CCCNCC4)nn3)CC1)c1ccccc1S2  lowest significant inhibitory concentration (APP; amyloid fibril formation, inhibitor, thioflavin T; together with: 2.5 µM Aβ42): > 3 µM
COc1cc(/C=C/C(=O)C2=C(/C=C/c3ccc(O)c(OC)c3)NC(=S)NC2[c-]2cccc2)ccc1O.[Fe+2].c1cc[cH-]c1 (racemic)  fibril length (Amyloid-beta precursor protein, Aβ1-40 fibrils (APP, Homo sapiens, UniProt P05067); single-molecule localization microscopy; 20 µM, 1 h, room temperature, together with: amyloid beta 20 µM): 1.28 ± 0.64 µm
CC[C@H](C)[C@H](NC(=O)[C@H](CCC(N)=O)NC(=O)[C@@H](NC(=O)[C@@H]1CCCN1[C@@H]1CN(C(=O)[C@H](CCCCN)NC(=O)[C@H](CC(N)=O)NC(=O)[C@@H](NC(=O)[C@@H](NC(=O)[C@H](CCC(N)=O)NC(=O)[C@@H](N)C(C)C)[C@@H](C)CC)[C@@H](C)CC)CC[C@H]1NS(=O)(=O)c1ccc(C)cc1)C(C)C)C(=O)N[C@H](C(=O)N[C@@H](Cc1ccc(O)cc1)C(=O)N[C@@H](CCCCN)C(N)=O)C(C)C  ThT fluorescence (APP; fibril formation, ThT fluorescence; 10 µM, 42 h, pH 7.4, equimolar to peptide, together with: amyloid-beta 1-42 10 µM; reference: untreated amyloid-beta): 104 ± 4%
CCC1CC2C(C)=CC3C(=O)C=CCC3C=CC(C)=CC2C(=O)O1 (stereo not drawn)  fibril dissociation (APP amyloid-beta fibrils; thioflavin T, measured: Aβ42 pre-formed fibrils; 5 µM): 6.82%
CSCC[C@H](NC(=O)[C@@H](CCCCN)NC(=O)[C@H](CC(C)C)NC(=O)[C@@H](CC(N)=O)NC(=O)[C@H](CCSC)NC(=O)[C@H](NC(=O)[C@H](Cc1c[nH]c2ccccc12)NC(=O)CNC(=O)[C@H](CO)NC(=O)[C@H](Cc1ccc(O)cc1)NC(=O)[C@H](CCC(=O)O)NC(=O)[C@H](CC(N)=O)NC(=O)[C@H](CCSC)NC(=O)[C@@H](Cc1c[nH]c2ccccc12)NC(=O)[C@H](CO)NC(=O)[C@@H](CC(C)C)NC(=O)[C@H](CC(N)=O)NC(=O)[C@@H](CCSC)NC(=O)[C@H](CCC(=O)O)NC(=O)CNC(=O)[C@@H](N)CCCNC(=N)N)[C@H](C)O)C(=O)NCC(=O)N[C@@H](CCCNC(=N)N)C(=O)O  inhibition (APP; self-aggregation, inhibitor, thioflavin T fluorescence; 10 µM APP to compound ratio 1:10, compound heated at 60 °C, together with: thioflavin T 22 µM): ~50%
CCCCCCCCCCCCCCCC(=O)OCC(CSC[C@H](N)C(=O)N[C@@H](CO)C(=O)N[C@@H](CCCCN)C(=O)N[C@@H](CCCCN)C(=O)N[C@@H](CCCCN)C(=O)N[C@@H](CCCCN)C(=O)NCCCCCC(=O)N[C@@H](CCCCN)C(=O)N[C@@H](CC(C)C)C(=O)N[C@H](C(=O)N[C@@H](Cc1ccccc1)C(=O)N[C@@H](Cc1ccccc1)C(=O)N[C@@H](Cc1ccc2ccccc2c1)C(=O)O)C(C)C)OC(=O)CCCCCCCCCCCCCCC (stereo partly drawn)  fibril diameter (Amyloid-beta precursor protein, fibrillar amyloid-beta (APP, Homo sapiens, UniProt P05067); TEM; 2.0 eq, 3 h, fibril 1, together with: APP 20 µM): 43.7 nm
CC[C@H](C)[C@H](NC(=O)[C@@H](NC(=O)[C@@H](NC(=O)[C@@H](NC(=O)[C@H](CCCCN)NC(=O)[C@H](CCC(=O)O)NC(=O)[C@H](C)N)C(C)C)C(C)C)C(C)C)C(=O)N[C@H](C(=O)N[C@@H](CCCCN)C(N)=O)[C@@H](C)O  aggregation half-time (APP; fibril formation, ThT fluorescence; 1-fold of peptide, pH 7.4, room temperature, together with: amyloid-beta 10 µM; reference: untreated): 104 ± 3%
O=c1cc(/C=C/c2ccc(N3CCCC3)cc2)oc(/C=C/c2ccc(N3CCCC3)cc2)c1  amyloid beta aggregation (Amyloid-beta precursor protein, amyloid-beta aggregates (APP, Homo sapiens, UniProt P05067); TEM and dot blot; 2 µM, together with: amyloid beta 20 µM): no effect
CC[C@H](C)[C@H](NC(=O)[C@@H](NC(=O)[C@@H](NC(=O)[C@@H](NC(=O)[C@@H](N)CCCCN)C(C)C)C(C)C)C(C)C)C(=O)N[C@H](C(N)=O)[C@@H](C)O  ThT fluorescence (APP; fibril formation, ThT fluorescence; 10 µM, 42 h, pH 7.4, equimolar to peptide, together with: amyloid-beta 1-42 10 µM; reference: untreated amyloid-beta): 95 ± 12%
CCC1CC2C(C)=CC3C(=O)CCCC3C=CC(C)=CC2C(=O)O1 (stereo not drawn)  fibril dissociation (APP amyloid-beta fibrils; thioflavin T, measured: Aβ42 pre-formed fibrils; 500 µM): 22.1%
O=C1c2sc(-c3ccc(N4CCC(F)C4)nc3F)nc2CCN1c1cccnc1 (stereo not drawn)  specific binding (APP amyloid-beta insoluble aggregates; radioligand filter binding; AD brain insoluble fraction; 25 nM; higher = more binding): 78 a.u. and 110 a.u.
CC[C@H](C)[C@H](NC(=O)[C@@H](NC(=O)[C@H](CCCCN)NC(=O)[C@@H](NC(=O)CNC(=O)[C@@H](N)CCCNC(=N)N)[C@@H](C)O)C(C)C)C(=O)N[C@@H](CC(C)C)C(=O)N[C@@H](Cc1c[nH]cn1)C(=O)N[C@@H](CC(C)C)C(N)=O  ThT fluorescence (APP; fibril formation, ThT fluorescence; 10 µM, 42 h, pH 7.4, equimolar to peptide, together with: amyloid-beta 1-42 10 µM; reference: untreated amyloid-beta): 102 ± 29%
O=C1c2sc(-c3ccc(N4CCC(CO)CC4)nc3F)nc2CCN1c1cccnc1  specific binding (APP amyloid-beta insoluble aggregates; radioligand filter binding; AD brain insoluble fraction; 150 nM; higher = more binding): 1100 a.u. and 953 a.u.
CC[C@H](C)[C@H](NC(=O)[C@@H](NC(=O)[C@H](CCCCN)NC(=O)[C@@H](N)[C@@H](C)O)C(C)C)C(=O)N[C@@H](CC(C)C)C(=O)N[C@@H](Cc1c[nH]cn1)C(N)=O  ThT fluorescence (APP; fibril formation, ThT fluorescence; 10 µM, 42 h, pH 7.4, equimolar to peptide, together with: amyloid-beta 1-42 10 µM; reference: untreated amyloid-beta): 95 ± 14%
CC(C)C[C@H](NC(=O)CCS[C@H]1O[C@H](CO)[C@@H](O)[C@H](O)[C@H]1O)C(=O)N1CCC[C@H]1C(=O)N[C@@H](Cc1ccccc1)C(=O)N[C@@H](Cc1ccccc1)C(=O)N[C@@H](CC(=O)O)C(=O)N[C@@H](CC(=O)O)C(=O)N[C@@H](C)C(=O)N[C@@H](Cc1c[nH]cn1)C(=O)N[C@@H](CCCCN)C(N)=O  inhibition (Amyloid-beta precursor protein, fibril (APP, Homo sapiens, UniProt P05067); amyloid aggregation, inhibitor; 20 µM): 91%
